Published values gathered from unrelated publications.
Compare with care: the assays were run in different laboratories. Numbers after ± are the reported error.

Compound	test	system	setting	endpoint	result
O=C(Nc1ccccc1)C1CCN(C(=O)Oc2cccnc2)CC1	adverse event reporting	healthy women	oral, 60 mg, 7 days	subjects with blurred vision	0%
Cc1cc(C)c(CNC(=O)c2cc(Cl)c3c(c2C)O[C@@](C)([C@H]2CC[C@H](N(C)C)CC2)O3)c(=O)[nH]1		relapsed/refractory NHL patients	dose not given, trial, safety set, treatment-related TEAE grade 5	incidence of tumour lysis syndrome	0%
COc1cc2c(Oc3ccc4[nH]c(C)cc4c3F)ccnc2cc1OCC1(N)CC1		paediatric recurrent refractory sarcoma	8 mg	abdominal pain incidence	25%
COc1ncnn2ccc(-c3cnc4nc(C)n(Cc5nnc([C@@H](C)F)o5)c4c3)c12		human	oral, dose not given, grade 3	patients with increased blood creatinine	0%
C[C@]1(CO)Cc2ncn(-c3ccc(C#N)c(Cl)c3)c2C(=O)O1		human, plasma	40 mg once daily, fasted	half-life at steady state	5.4 h
CCc1ccc(CC/C=C/c2ccc3c(c2)C(=O)CC3)cc1		Sprague-Dawley rat, female	oral, 120 mg/kg/day, 14 days	HDW	24.1 g/L
O=C(O)CCCOc1ccc(F)cc1-c1cc(-c2ccccc2C(F)(F)F)n(-c2ccccc2)n1	measured: AST	Crl:CD(SD) rats, female, serum	iv, 25 µg/kg, 1 day	serum enzyme activity	93.6 ± 19.6 U/L
COc1cccc(C=CC(=O)C=Cc2cccc(OC)c2OC)c1OC	acridine orange staining	zebrafish (Danio rerio) larvae	up to 25 µM, larvae at 96 hpf	apoptosis	no effect
CO[C@H]1C[C@@H]2CC[C@@H](C)[C@@](O)(O2)C(=O)C(=O)N2CCCC[C@H]2C(=O)O[C@H]([C@H](C)C[C@@H]2CC[C@@H](OC(=O)NCCOCCOCCOCCOCCOCCOCCOCCOCCC(=O)N3CCc4cc(Cn5nc(-c6ccc7oc(N)nc7c6)c6c(N)ncnc65)ccc4C3)[C@H](OC)C2)C[C@@H](O)[C@H](C)/C=C(\C)[C@@H](O)[C@@H](OC)C(=O)[C@H](C)C[C@H](C)/C=C/C=C/C=C/1C		patients with advanced solid tumours	intravenous, 12 mg weekly, any grade	AE leading to dose reduction	8.3%
CN1CC[C@@H](c2c(O)cc(O)c3c(=O)cc(-c4ccc(C(F)(F)F)cc4Cl)oc23)[C@@H]1CO	measured: Chills	AML	oral, 200 mg, intermittent dosing	patients with adverse event	20%

Repeated from above:
Compound	test	system	setting	endpoint	result
COc1cc2c(Oc3ccc4[nH]c(C)cc4c3F)ccnc2cc1OCC1(N)CC1		paediatric recurrent refractory sarcoma	8 mg	abdominal pain incidence	25%
